{"data": "Measurements pooled from the literature", "MET": "Hepatocyte growth factor receptor (MET, Homo sapiens, UniProt P08581)", "MET Y1230D": "Hepatocyte growth factor receptor (MET, Homo sapiens, UniProt P08581, Y1230D)", "note": "Compare with care: the assays were run in different laboratories."}
{"SMILES": "Cc1cnc(NC2CCOCC2)nc1-n1cnc(C(=O)NC(CN)c2cc(F)cc(Cl)c2)c1 (centres unmarked)", "target": "Hepatocyte growth factor receptor (MET, Homo sapiens, UniProt P08581, Y1230H)", "test": "enzyme activity, inhibitor, radiometric", "conditions": "1 µM", "endpoint": "remaining activity", "value": "93%"}
{"SMILES": "COc1cc(-c2cncc3c2CN(C)Cc2cc(N4CCNCC4)ccc2-3)cc(OC)c1OC", "target": "Hepatocyte growth factor receptor (MET, Homo sapiens, UniProt P08581, Y1230C)", "test": "enzyme activity, inhibitor", "conditions": "1 µM", "endpoint": "remaining activity", "value": "92%"}
{"SMILES": "CCCCC(=O)Nc1ccc(-c2ccc3ncn(CCC)c(=O)c3c2)cn1", "target": "Hepatocyte growth factor receptor (MET, Homo sapiens, UniProt P08581, Y1235D)", "test": "binding, competition with immobilised ligand", "conditions": "0.5 µM", "endpoint": "remaining binding", "value": "88%"}
{"SMILES": "Cc1cc([C@@H](C)Nc2ccccc2C(=O)O)c2nc(N3CCC(F)(F)CC3)c(C#N)c(=O)n2c1", "target": "MET", "test": "binding, competition with immobilised ligand", "conditions": "10 µM", "endpoint": "remaining binding", "value": "100%"}
{"SMILES": "Cc1ccc(NC(=O)c2ccc(C)c(C(F)(F)F)c2)cc1C#Cc1nn(C2CCC(O)CC2)c2ncnc(N)c12 (centres unmarked)", "target": "MET Y1230D", "test": "cell-free assay", "conditions": "10 µM", "endpoint": "remaining signal", "value": "105%"}
{"SMILES": "CNc1ncc2c(/C=C/C(=O)N3CCC(OC)CC3)nn(Cc3cccc(C(F)(F)F)c3)c2n1", "target": "MET", "test": "enzyme activity, inhibitor, radiometric", "conditions": "1 µM", "endpoint": "remaining activity", "value": "91%"}
{"SMILES": "Cc1cc(NC(=O)c2cccc3cc(-c4cccc5[nH]nc(N)c45)ccc23)ccc1F", "target": "MET Y1230D", "test": "enzyme activity, inhibitor", "conditions": "0.1 µM", "endpoint": "activity vs control", "value": "123%"}
{"SMILES": "C1=C/COCc2cc(ccc2OCCN2CCCC2)Nc2nccc(n2)-c2cccc(c2)COC/1", "target": "MET", "test": "binding", "conditions": "0.1 µM", "endpoint": "remaining binding", "value": "83%"}
{"note": "Excerpt of the above:"}
{"SMILES": "CCCCC(=O)Nc1ccc(-c2ccc3ncn(CCC)c(=O)c3c2)cn1", "target": "Hepatocyte growth factor receptor (MET, Homo sapiens, UniProt P08581, Y1235D)", "test": "binding, competition with immobilised ligand", "conditions": "0.5 µM", "endpoint": "remaining binding", "value": "88%"}
